Published values pooled from the literature.
Each numbered part is a random draw from the data of one study; scales do not carry over between parts. Positions count from the first letter of the parent shown.

Study 1
Target: Sal-like protein 4, full length isoform B (SALL4, Homo sapiens, UniProt Q9UJQ4-2, residues 1-616)
Method: universal PBM
Form: double-stranded DNA, one strand shown
Sample: in vitro
Tested at: not given
Notes: 8-mer, flanks averaged, mean of replicates
Reading: higher = stronger binding
Endpoint: E-score
Target sequence (chain): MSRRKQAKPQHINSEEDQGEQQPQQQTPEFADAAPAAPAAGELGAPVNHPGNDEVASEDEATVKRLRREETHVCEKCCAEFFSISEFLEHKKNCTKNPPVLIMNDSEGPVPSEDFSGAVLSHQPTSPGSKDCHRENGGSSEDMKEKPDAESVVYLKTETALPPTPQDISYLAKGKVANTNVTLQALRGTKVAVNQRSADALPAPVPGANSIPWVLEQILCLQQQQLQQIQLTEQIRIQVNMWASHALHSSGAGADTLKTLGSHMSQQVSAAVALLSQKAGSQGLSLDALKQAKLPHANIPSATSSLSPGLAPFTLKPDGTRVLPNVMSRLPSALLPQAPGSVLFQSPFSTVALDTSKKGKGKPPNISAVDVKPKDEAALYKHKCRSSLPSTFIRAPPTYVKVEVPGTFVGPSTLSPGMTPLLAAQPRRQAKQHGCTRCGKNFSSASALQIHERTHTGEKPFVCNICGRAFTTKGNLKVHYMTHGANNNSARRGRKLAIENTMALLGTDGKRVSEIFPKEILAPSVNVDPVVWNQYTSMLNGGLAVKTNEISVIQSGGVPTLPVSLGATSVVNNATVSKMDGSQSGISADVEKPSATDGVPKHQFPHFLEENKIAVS
CCGGCTAA: -0.126
ACCGCATG: -0.0935
CTGGTCAC: -0.155
CACGAGCC: -0.247
CTACATAC: 0.265
ATGCTCCG: -0.111
CATTATCA: 0.29
AGCAGGAG: -0.0416
ACTACTTG: 0.112
AACGATAT: 0.313
GCCTAGGA: -0.132
GAATAGGA: 0.152
ATTGTGGC: 0.0362
CCAGCTTA: 0.0238
GGCGAACC: -0.313
CGATAATA: 0.339
AGCTGCAT: 0.0321

Study 2
Target: Histone acetyltransferase KAT6A, winged helix 2, GST fusion (KAT6A, Homo sapiens, UniProt Q92794, residues 85-181)
Method: protein binding microarray
Form: double-stranded DNA, one strand shown
Sample: in vitro
Tested at: not given
Notes: 8-mer, flanks averaged, mean of 2 arrays, mostly near background
Reference: not given
Reading: higher = stronger binding
Endpoint: E-score
Construct (chain): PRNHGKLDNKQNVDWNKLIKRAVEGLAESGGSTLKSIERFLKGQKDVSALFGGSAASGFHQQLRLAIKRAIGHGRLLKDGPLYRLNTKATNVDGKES
ATGGAGTA: 0.0292
ACGAACAA: 0.145
CGGTGATA: -0.00668
ATAGGGGC: -0.0629
CTATGACA: -0.183
TACGGGCA: 0.05
CATTCGAG: -0.0766
GAGCTGTA: -0.2
ATAAAACG: -0.0039
AGGCGGCG: 0.123
AAATCACC: 0.00805
TGTCAACA: -0.0792
CGACGTTA: 0.0384
GAAGCCCA: -0.119
CAGGCCGG: 0.0688
ATAATTCG: -0.0549
ATTAGTGC: 0.166
TCAATGCA: -0.0489

Study 3
Target: RNA binding protein fox-1 homolog 2, RRM domain, GST-SBP tag (RBFOX2, Homo sapiens, UniProt O43251-10, residues 100-194)
Method: RNA Bind-n-Seq
Form: RNA
Sample: in vitro
Tested at: 365 nM
Notes: natural RNA segment, single round, ends assumed
Reference: no-protein control
Reading: higher = stronger binding
Endpoint: RBNS enrichment (R)
Shared flanks, not repeated: GGGAGUUCUACAGUCCGACGAUC … UGGAAUUCUCGGGUGCCAA
Construct (chain): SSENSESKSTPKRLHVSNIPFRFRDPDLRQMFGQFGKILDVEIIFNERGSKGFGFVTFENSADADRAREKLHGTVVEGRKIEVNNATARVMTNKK
CUCCGGCCCCCGUCUUGUAAAAAGGGGAGGAGAAUUAGCCAAACACUGUAAGCUUUUAAGAAAAACAAAGUUUUAAACGAAAUACUGCUCUGUCCAGAGGCUUUAAAACU: 1.78
GUAGUUGUUCACUGCUUUCCUGGAUGGAUGGGACUCUUAUGUCAUAACUUCUGUUACUCCUUUGGCCCAUAGCUAAGGUCAUCCUUCCCCACAGGGGUGGCUUUGGGAUU: 0.339
CUUUGCACUGAAGGAGGACUUGGACUGACCUCCGACUUACAUAGUUUGUUAAGAGCUGUCUUUAGCAUUCUGCUGGAAGAAUUUUGGGAGCAACAGACUGGGACAGAGCC: 0.45
UUUGCUCUUUCAGCUAUUCUAGAGUGGCCUGUGAGCAAAUGAACUUCUCUCUCUCUCUCUCUCUCUCUCUCUUUCUUUCUCUCUCUCUCUCCCUUCCUUCCUUCCUUCCU: 1.01
GCAUCAUACUUCAUGAUGUCAGAGUGUCUUGUCACGGUUUGGACUUAACUUCCCUCUAUAGUCAGCAGAGGGGAUCCGAGGCCCAGUGCUGCCUGGAGAACUGAGAAUAG: 0.563
GGACCCGAGACUGAGUUUUGUCCUUGUCCUUUAGCCUUAGCAGUGGGUAUGAGGUGUGCAGGGGGCUGGGUGGCUUUCCUCAGCCCAUUACAAAGAGGGCCCCCCACCCC: 0.685
AAGAUUAAAAGUUGAAUAAAUAACACCAGCUUCCUGAAAAUGUCCAUAAUGCAUCAUUUGAAAAACAAAAACACCUGCCUACUUUACAUUAACAUGGUAAAGAUUGUAUG: 1.4
AACAGGAUCUGUCCCUACCCAGCACAGCAAAUGGUUGUAGUAAUUGCCAAAGCCCUCAUAAAGCCCUCCGGCUUGAGGAGAGAGUGUAUAGUCAUGGGUUCUGCCUCUGU: 0.275

Study 4
Target: CCND1, cyclin fold, Cln2 fusion (human)
Method: yeast growth competition, sequencing
Sample: yeast
Notes: weak parent motif
Reference: not given
Reading: higher = stronger binding
Endpoint: normalised enrichment score
Starting sequence: NPAT docking peptide (human); PCHRRVLCFDSTT
R5K: 0.206
F9A: -0.496
R5K F9L: -0.189
R5A L7A: -0.0886
H3A: 0.808
T12A: -0.00365
C8A: -0.134
C2A: -0.0635
P1A: -0.159
L7A: -0.471

Study 5
Target: RING finger protein unkempt homolog, zinc fingers 1-6, SBP tag (UNK, Homo sapiens, UniProt Q9C0B0, residues 30-357)
Sequence of UniProt Q9C0B0 (30-357, looked up): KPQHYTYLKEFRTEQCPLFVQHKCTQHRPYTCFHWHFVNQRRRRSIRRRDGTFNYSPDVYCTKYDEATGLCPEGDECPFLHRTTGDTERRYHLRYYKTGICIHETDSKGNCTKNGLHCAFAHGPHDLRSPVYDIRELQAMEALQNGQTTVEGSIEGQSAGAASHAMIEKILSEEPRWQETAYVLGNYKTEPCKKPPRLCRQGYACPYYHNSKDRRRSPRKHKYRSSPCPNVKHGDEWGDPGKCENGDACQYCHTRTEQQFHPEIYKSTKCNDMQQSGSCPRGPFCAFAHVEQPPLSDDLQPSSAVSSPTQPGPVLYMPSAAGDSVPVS
Method: RNA Bind-n-Seq
Form: RNA
Sample: in vitro
Tested at: 100 nM
Notes: RNA with constant flanks, vertebrate orthologous sites, ends assumed
Reference: input RNA pool
Reading: higher = stronger binding
Endpoint: bound/input enrichment
Shared flanks, not repeated: GGGAGUUCUACAGUCCGACGAUC … CAACAGAGGAUUGAGCAUCA
GCAAUGAAAAAGCAGCCCUUCUCCCAGUCCCCUUUUCACUAGGAGAUACAAACAUUACCAUAGAAGAGCAAUUAAAUUCAAUAAAUUUAUCUUUUCAGGAUGAUCCAGACUCCAGUACCA: 1.11 ratio
GUUAGGUCAUGACCCUUACAGGUUAGGUCAUGAUGCCUACAGAUUAGGUCAGGACCCUUAUAGAUUAGGCCAUGAUCCCUAUAGACUAACUCCAGAUCCCUAUAGGAUGUCACCUAGACC: 0.463 ratio
GUGACUUUGGAAGUCCGCAGUGUCUCAUUGCAGAUAAUUUUUAGCUUAGGGCCUGGUGACUAGGUAGGUUCUGUCCUUUCCAAUCGGAGACCUCUGCCGCAAACAUGCUCCGCCAGAUCA: 0.543 ratio
CCAUAUUUAGAGAACAUUUGAGAAGGUUCUCUAGAUUUGCUGGAUUUUAUUAGGUUUGAGCUUUAUUCUUUAGAGAUUUGAUAACAUUACUCCCAAUUUCCAGGUUUUUUUUAUUGAGCA: 0.616 ratio
UGGGUUACUCCUCUUAUUAUCAAGUAGCUGGAAUUGUGAAGGUCGGAGUAGUUAGAUCUUUAGCUUUUAUUCCUUAUUUUUUGUAUUACUAUCCAUGUGUAUAAAUUAUUGAUCAUGUUG: 2.87 ratio
GUGCAAGGAGAUUAUUCCAACUAGUGAAUUUAUUAACAGUAAGUUGACAGCAAAAGCAAAUAGGCAGCUUCAAGAUCCUUUAGUAAUCAUGACAGGAAAUAUCCCAACGUGGCUUACUGA: 0.833 ratio
GAAACUCCCCAUUGUCACUGAGAACCACCAAAUCUGACUUUUACAUUUGGUCUCAGAAUUUAGGUUCCUGCCCUGUUGGUUUUUUUUUUUUUUUUUUAAACAGUUUUCAAAAGUUCUUAA: 1.41 ratio
UCAUAAUCACUAAUUGUAAUCUGAAGAAAGUGUAACAUUGUGUAGCCUUUUUGUAUAAAAUAGACAAAUAGAAAUGGUCCAAUUAGUUUCCUUUUUAAUAUGCUGAAAAUAAGCAGGAAG: 0.832 ratio

For quick reference, copied from above (study 2):
ATAGGGGC: -0.0629
CTATGACA: -0.183
TACGGGCA: 0.05
CATTCGAG: -0.0766
GAGCTGTA: -0.2
ATAAAACG: -0.0039
AGGCGGCG: 0.123
